Assay results collected from several papers.
Several values in a cell are separate wells, animals, samples, runs or records.
Target: Serine/threonine-protein kinase pim-1 (PIM1, Homo sapiens, UniProt P11309)

SMILES	assay	setting	scale	endpoint	result
Cc1cccc(O[C@H]2CCC[C@@H](C(C)CNCc3ccncc3)C2)c1 (relative stereo)	enzyme activity, inhibitor	10 µM	–	inhibition	-1%
c1ccc2c(Nc3cc(C4CCC4)[nH]n3)nc(Nc3ccc4nc[nH]c4c3)nc2c1	enzyme activity, inhibitor	0.25 µM	–	remaining activity	97%
NC(=O)C[C@H]1CCc2sc3ncnc(O[C@H]4CC[C@H](N5CCOCC5)CC4)c3c21	enzyme activity, inhibitor	10 µM	–	inhibition	5%
C=CC(=O)N1CCc2ccc(-n3c(=O)ccc4cnc5ccc(-c6cnn(C)c6)cc5c43)cc21	KINOMEscan	1 µM	baseline: DMSO control	remaining binding	100%
Cc1cccc(-c2ccc3nc(NC(=O)C4CCOCC4)nn3c2)c1	enzyme activity, Dundee kinase panel	10 µM	–	remaining activity	99%
CN1CCN(Cc2ccc(NC(=O)c3cccc(C#Cc4cnc(N)c5ncccc45)c3)cc2C(F)(F)F)CC1	cell-free assay, competition with immobilised ligand	50 nM	–	remaining binding	77%
Cc1ccc(C)c(-c2ccc3nc(NC(=O)C4CCCCC4)nn3c2)c1	enzyme activity, Dundee kinase panel	10 µM	–	remaining activity	78%
Cn1cc(-c2ccc3[nH]c4nccc(N[C@H]5CC[C@H](N6CCOCC6)CC5)c4c3c2)cn1	enzyme activity, inhibitor, radiometric	1 µM	–	inhibition	92%
CC(=O)N1c2ccc(-c3ccc(CNC(=O)c4cn5cc(-c6cnc(N)nc6)nc(N6CCOCC6)c5n4)cc3)cc2CC[C@@H]1C	KINOMEscan	10 µM	–	remaining binding	92%
Nc1ncc2c(n1)-c1c([nH]c3ccc(C4=CCOCC4)cc13)CCC2	binding, competition with immobilised ligand	1 µM	–	remaining binding	100%
Cc1ccc(-c2c(/C=C(\C#N)C(=O)NC(C)C)n(CCCO)c3ncnc(N)c23)cc1	cell-free assay, competition with immobilised ligand	1 µM	–	remaining binding	100%
Fc1cncc(-c2ccc3[nH]c4ncnc(N[C@H]5CC[C@H](N6CCOCC6)CC5)c4c3c2)c1	enzyme activity, radiometric	1 µM	–	inhibition	> 98%
COc1ccc(NC(=O)Nc2ccc3c(c2)C(=O)N(C(C)CO)CC(C)C(CN(C)Cc2ccc4c(c2)OCO4)O3)cc1 (centres unmarked)	kinase activity, KinaseProfiler	0.03 µM, species human	baseline: control	remaining activity	87%
O=C(O)CCC(=O)c1cccc(NS(=O)(=O)c2c[nH]c3ncccc23)c1	kinase activity, radiometric	10 µM	–	remaining activity	92%
C=CC(=O)N1Cc2nc(-c3cc(-c4cc(Cl)cnc4Cl)c(F)cc3F)n(-c3ccncn3)c2C1	cell-free assay, inhibitor	1 µM	–	inhibition	4.2%
O=C=[N][Ru-4]123([n]4c5ccc(O)cc5c5c6c(c7cc(F)c[n+]1c7c54)C(=O)NC6=O)[S+]1CC[S+]2CC[S+]3CC1 (centres unmarked)	enzyme activity	100 nM, human enzyme, with: 10 µM ATP	baseline: untreated	remaining activity	31%
CCn1cc(C(=O)O)c(=O)c2c(N)c(F)c(NC3CCCCC3)cc21	kinase activity	0.1 µM, with: ATP at Km	–	inhibition	23.3%
COc1ccc(C(=O)/C=C/c2ccccc2-c2c[nH]c3ccc(C#N)cc23)c(O)c1	enzyme activity, inhibitor	20 µM	–	inhibition	56%
COc1cc(Nc2nccc(-c3cnn4nc(OC)ccc34)n2)cc(C(F)(F)F)c1	binding, competition with immobilised ligand	1 µM	–	remaining binding	100%
C=CC(=O)N1CCCC(n2c(=O)c3ncccc3n(Cc3ccc(Oc4ccccc4)cc3)c2=O)C1 (centres unmarked)	cell-free assay, competition with immobilised ligand	1 µM	–	remaining binding	100%
Cc1cnc2nc1Nc1cccc(c1)COC/C=C/COCc1cc(ccc1OCCN1CCOCC1)N2	binding	0.1 µM	–	remaining binding	100%
COc1c(Cl)cccc1Nc1c(-c2ccncc2C#C[C@@]2(C)CCCN2C(=O)/C=C/CN(C)C)[nH]c2c1C(=O)NCC2	binding, competition with immobilised ligand	3 µM	–	remaining binding	92%
COc1cncc(-c2ccc3[nH]c4ncnc(N[C@H]5CC[C@H](N6CCOCC6)CC5)c4c3c2)c1	enzyme activity, inhibitor, radiometric	1 µM	–	inhibition	98%
COc1c(OCCCN2CCOCC2)ccc2c1N=C(NC(=O)c1cnc(N)nc1)N1CCN=C21	kinase activity, inhibitor	1 µM	baseline: untreated control	remaining activity	114%
COc1ccc(O)cc1-c1c[nH]c2ncc(-c3cncc(C(=O)N(C)C)c3)cc12	binding, competition with immobilised ligand	0.2 µM	–	inhibition	-1.98%
C=CC(=O)Nc1cccc(-c2cnc3[nH]cc(C(=O)NC(C)(C)C)c3n2)c1	kinase activity	0.1 µM	–	inhibition	1% and 2%

Excerpt of the above:
SMILES	assay	setting	scale	endpoint	result
C=CC(=O)N1Cc2nc(-c3cc(-c4cc(Cl)cnc4Cl)c(F)cc3F)n(-c3ccncn3)c2C1	cell-free assay, inhibitor	1 µM	–	inhibition	4.2%
O=C=[N][Ru-4]123([n]4c5ccc(O)cc5c5c6c(c7cc(F)c[n+]1c7c54)C(=O)NC6=O)[S+]1CC[S+]2CC[S+]3CC1 (centres unmarked)	enzyme activity	100 nM, human enzyme, with: 10 µM ATP	baseline: untreated	remaining activity	31%
